Results collected from several papers.
Each numbered part is a random draw from the data of one study; scales do not carry over between parts.

Set 1
Target: Histone acetyltransferase KAT6A, both winged helices, GST fusion (KAT6A, Homo sapiens, UniProt Q92794, residues 1-181)
Technique: protein binding microarray
Molecule type: double-stranded DNA, one strand shown
Medium: in vitro
Tested at: not given
Setting: 8-mer, flanks averaged, mean of 2 arrays, mostly near background
Baseline: not given
Reading: higher = stronger binding
Target sequence (chain): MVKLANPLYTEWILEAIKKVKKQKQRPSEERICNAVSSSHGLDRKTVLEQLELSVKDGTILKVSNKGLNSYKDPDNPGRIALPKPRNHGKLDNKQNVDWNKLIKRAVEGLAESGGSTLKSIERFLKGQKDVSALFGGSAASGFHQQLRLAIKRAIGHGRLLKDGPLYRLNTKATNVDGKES
| Oligonucleotide | E-score |
| --- | --- |
| CTGACTGA | -0.142 |
| AAAGGTAA | -0.246 |
| ATGGTCAC | -0.0496 |
| GTCTAGAA | 0.06 |
| ACTTTGGG | -0.16 |
| CCACACCC | -0.102 |
| ACCGGCCC | 0.161 |
| ATAGAAGG | -0.00972 |
| CAGCTAGG | -0.244 |
| AATCCCAA | -0.122 |
| AGGTGCCA | -0.244 |
| GGTATACC | 0.16 |
| AGCTTTGG | -0.123 |
| CAATCCTC | -0.244 |
| CTTATACC | -0.0566 |
| CATTGCGC | 0.218 |
| ACGCTCTA | 0.0247 |
| AACTTGCT | -0.0914 |
| ATGATCGG | 0.0217 |
| ACGTCCCC | -0.0147 |
| AAGCAGAC | -0.125 |
| GTTCTGCA | 0.0154 |
| AGAGCGTA | 0.15 |
| ACATTTCT | -0.0675 |

Set 2
Target: Interferon regulatory factor 7, full length, phosphomimetic (IRF7, Homo sapiens, UniProt Q92985, residues 1-503, S101K/S471D/S472D/S475D/S476D/S477D/S483D/S484D/S487D)
Chain of UniProt Q92985 (whole entry, unmodified, looked up): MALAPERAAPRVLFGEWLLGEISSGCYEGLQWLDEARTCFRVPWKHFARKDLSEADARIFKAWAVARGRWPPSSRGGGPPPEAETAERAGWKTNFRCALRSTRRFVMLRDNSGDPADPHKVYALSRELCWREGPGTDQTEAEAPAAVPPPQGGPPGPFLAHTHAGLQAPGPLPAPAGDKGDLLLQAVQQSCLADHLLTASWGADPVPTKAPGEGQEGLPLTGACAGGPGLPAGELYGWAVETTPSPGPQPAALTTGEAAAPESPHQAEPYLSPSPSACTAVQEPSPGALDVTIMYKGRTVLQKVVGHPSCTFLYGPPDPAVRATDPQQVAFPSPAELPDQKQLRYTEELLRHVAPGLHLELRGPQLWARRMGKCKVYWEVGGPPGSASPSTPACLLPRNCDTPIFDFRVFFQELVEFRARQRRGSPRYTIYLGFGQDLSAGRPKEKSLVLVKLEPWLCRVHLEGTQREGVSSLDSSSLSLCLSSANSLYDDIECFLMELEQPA
Technique: protein-binding microarray
Molecule type: double-stranded DNA, one strand shown
Medium: in vitro
Tested at: 250 nM
Setting: 60-bp whole probe
Added: salmon DNA 0.4 mg/ml
Baseline: random background probes
Reading: higher = stronger binding
All sequences stand within: GCCTAGCAC … GTCTTGATTCGCTTGACGCTGCTG
| Oligonucleotide | log fluorescence |
| --- | --- |
| TTAGGTATCCTTGTCCTTTAGTGCTAG | 0.158 z-score |
| GAGGGACTGGGGTTTCGGGACGTGCTA | 0.962 z-score |
| TTAGGCCTGGACTATCGGTTAGTGCTA | -0.573 z-score |
| TTAGGTTTCGGGTATTGGTTAGTGCTA | 6.73 z-score |
| GACGATTTTGGGTATCGAGACGTGCTA | 0.0386 z-score |
| GACGGACTCGGACTGGGGACGTGCTAG | 0.237 z-score |
| TCAACTATTGCTTCCTCACTGTGCTAG | 0.6 z-score |
| TTAGGACTGCTACTGTTTTAGTGCTAG | -0.00965 z-score |
| GACGGTATCCTACTGCTGCCGTGCTAG | -0.312 z-score |
| TCAAGCCTAAGGTTTAGGACTGTGCTA | -0.372 z-score |
| TTAGGTATCGACTTTCGGATAGTGCTA | 2.2 z-score |
| TTAGACCTGAGTCTCGATTAGTGCTAG | 1.06 z-score |
| GCGCTTCTCGAGTGCCGGCTGGTGCTA | 0.312 z-score |
| GACTATTTCAGTATCGAGACGTGCTAG | 1.08 z-score |
| TTAGGACTGGACTATCGGCTAGTGCTA | -0.618 z-score |
| GACGGTATCGGATTTCGGGACGTGCTA | 1.05 z-score |
| TCAGATTTCAGTCTCGATTAGTGCTAG | 2.12 z-score |
| CACTCTCTGCTTGTGTCTGGGTGCTAG | 0.583 z-score |
| GACGGTATCCTTCTCCAGACGTGCTAG | 0.0296 z-score |
| GTATTTTTCTAAACCATTTTGTGCTAG | 1.66 z-score |
| GACGGACTGCTACGGCTGACGTGCTAG | -0.736 z-score |
| TCAGATTTTTTTTCCTAACTGTGCTAG | 0.843 z-score |
| CTTAGCTTGGGTCTGTGCCTGTGCTAG | -0.659 z-score |
| GACGGTTTCCTTCTCCTGAGGTGCTAG | 2.58 z-score |
| TTTTGCTTTCATTTATTTACGTGCTAG | 1.39 z-score |

Set 3
Target: Centromere-binding protein 1, full length, N-terminal tag (CBF1, Saccharomyces cerevisiae, UniProt P17106, residues 1-351)
Chain of UniProt P17106 (whole entry, looked up): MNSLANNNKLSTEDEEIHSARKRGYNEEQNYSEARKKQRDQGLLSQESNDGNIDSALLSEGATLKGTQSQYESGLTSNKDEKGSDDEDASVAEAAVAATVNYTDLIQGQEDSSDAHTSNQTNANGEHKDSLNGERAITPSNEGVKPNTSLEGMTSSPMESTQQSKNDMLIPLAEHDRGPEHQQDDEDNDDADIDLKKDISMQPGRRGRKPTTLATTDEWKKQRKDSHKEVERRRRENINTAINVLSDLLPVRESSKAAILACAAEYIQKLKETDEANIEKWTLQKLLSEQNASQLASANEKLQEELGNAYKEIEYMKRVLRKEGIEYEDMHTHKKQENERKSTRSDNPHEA
Technique: protein-binding microarray
Molecule type: double-stranded DNA, one strand shown
Medium: in vitro
Tested at: 0.8 µM
Setting: whole 60-bp probe, no competitor
Reading: higher = stronger binding
All sequences stand within: … GTCTTGATTCGCTTGACGCTGCTG
| Oligonucleotide | fluorescence intensity [a.u.] |
| --- | --- |
| GAATACGAATTTCCTGACGTGAGAAGGAAAAAATAG | 552 |
| TGTACGAAGCTATGGCACGGCACTATAGTAGTTAGG | 513 |
| TGTACGAAGCTATGTCAGGTATATATAGTAGTTAGG | 543 |
| GAAACTGCAATAATGCACATGTATCTTTTCAGTTAG | 639 |
| CTAACCTCACCTTACCACATGTTGGTCCGTTGCTTC | 554 |
| GAATCTAACAAAAATCATGTGAAAAATCATGTGTAG | 958 |
| CTAACGAGGTCGGGTAACGTGTTTGGTGTACTGTTC | 638 |
| CTAATACGACTTGAACATCAGAACGGCGATTTTTTC | 560 |
| GAAATGTTTTTGAACACCACCATCAGCCATACATAG | 508 |
| CTACAAATCGGAATTTGAGTCACAGATCCCAGATTC | 533 |
| GAAGGAAACCGTTGTCACGATGTAATTAAAATTTAG | 795 |
| CTAGCACTTCGTTAACACGTTTGGTTGTCCTTATTC | 509 |
| CTAGTAATCATATTTCAGTCACCTTTTTCCCTTTTC | 496 |
| CTATTGTTTTTATCAGGTGTTTCCCTATTTATATTC | 884 |
| CTATCCTTCTTTCTGCGCGTGAATCAAAACACATTC | 689 |
| GAAATTTTATTAAGACACGTTTATCAATTGCCGTAG | 619 |
| CTAAACTAACTATATAACGTGGCATATTAAAGATTC | 639 |
| CTAATCCTGAGCCATCACCCACCCCACCCGTTGTTC | 528 |
| CCTAACTACTATACACACGTGAGATAGCTTCGTACA | 2770 |
| GAATTTCGGGAAGATCACAACAGTAGTAGCAAGTAG | 516 |

Set 4
Target: RNA binding protein fox-1 homolog 2, RRM domain, GST-SBP tag (RBFOX2, Homo sapiens, UniProt O43251-10, residues 100-194)
Technique: RNA Bind-n-Seq
Molecule type: RNA
Medium: in vitro
Tested at: 365 nM
Setting: natural RNA segment, single round, ends assumed
Baseline: no-protein control
Reading: higher = stronger binding
All sequences stand within: GGGAGUUCUACAGUCCGACGAUC … UGGAAUUCUCGGGUGCCAA
Construct (chain): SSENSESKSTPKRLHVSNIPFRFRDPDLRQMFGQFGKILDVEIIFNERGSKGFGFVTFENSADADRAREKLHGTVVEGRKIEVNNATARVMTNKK
| Oligonucleotide | RBNS enrichment (R) |
| --- | --- |
| UGAACAGACUAUAACUAGGAAAGGAGGAAAGGUAUCAGGGAUUUUUAAGUCCGUUUAGAGAGCAAACCAUAUUGUGCCUCUUCAUCUUGACCCAGGCUCUUAUAGAUAGG | 0.449 |
| AAGACCCUUUGCAAACCCUGAACUGGGCUACGGGAAAAUAACACGAAUACUGAUAAGGACACAACUAUGUGUGCCCAUUCAGAUCAAAGUACUUGUUAGGGAAAAAAAAA | 0.327 |
| GAGGAACAAGACCUGAGCGCUGUCCCUGGGGAACCUCACUAGUCAUUCCUUUCCCUUGAUGGGGCUUGUGAUGGACCCAAGGUCUACCUCAGACUUGAGUCUGUUUCCCC | 0.256 |
| AUCACUAUAUUUAUUCAAGCUGUGAUUGUUUUCUUUCUCACUCAAAAAAGAAUUUUGUAUGUUGUGGCAUUUAAUCAUUUCAUGUUCAGUAACAAAUGAUAUUUUUGUUA | 1.31 |
| UUGCAAAGCAAAAAAAGGUAUUUUCUUGAAAAUACUAUUUAAUGUUUAACUAGACUAUAGGUAGUUCCUUAAGGUUGUUUGACCUGAAGUGGAGUUGGGUUUGGAAGCUG | 0.299 |
| GGCUCUACUUAGCACACGCACAGUGGCACUAGGACCUGCGUGCCUGGCCCUCAGUGGGUAGGGCGGUGCUGCCUAGGCACACAGCAGCGCUUACGGGCCCCAGGUGCCUA | 0.297 |
| UUUGUACAAUAUUUAACAAUCACUUAUCCAAGGUGGGGUUUUAUGGGGAUUUUAAGCUUUCUGUUAAAUACUUGCAGAAAAAAUAGCAAGUACGAUUUGACAGUAGUACA | 0.591 |
| GUGACCACAGCUGGGCCCUGUUCCCUCUGGACCUCGGUCUCCUCAUCUGUGAGAUGCUGUGGCCCAGCUGACGAGCCCUAACGUCCCCAGAACCGAGUGCCUAUGAGGAC | 0.436 |
| UCUACUACAGAGUCUAUUAUACUAGAUAAAAAUGUUGUUACAAAGUCUGGAGUCUAGGGUUGGGCAGAAGAUGACAUUUAAUUUGGAAAUUUCUUUUUACUUUUGUGGAG | 0.773 |
| GUCAGUAUUCUGUAAAGUUCCCCUGGCCUAAAUGAUUACUUGCUCUGGGCAAGUGGAUAUUUAUUAGGCUAUUUCAAAGCCACAGCAUAAGAAUGUCAGCCUAGCCACAG | 0.544 |
| UUGCUUUCAAAAUACAAGCACAGCAGUCCUUGAAUGGCUGUUGACCCAGGGCACCUAGCUGUCCCUGCUGGUCCUGGGGCUGCCAGAAUUCCCUUGGGCGCCAAGCAACC | 0.313 |
| UCUGACGUCCACCUCCUACCCCAUAGGAGUUAGAAGUUAGGGUUUAGGCAUCAUUUUGAGAAUGCUGACACUUUUUCAGGGCUGUGAUUGAGUGAGGGCAUGGGUAAAAA | 0.581 |

Set 5
Target: Prothrombin, mature alpha-thrombin (F2, Homo sapiens, UniProt P00734)
Technique: aptamer microarray, sandwich
Molecule type: DNA with 2'F-ANA
Medium: in vitro
Tested at: 200 nM
Setting: whole 15-mer aptamer, many near background
Added: Cy3 exosite-II aptamer, 400 nM
Reading: higher = stronger binding
Oligonucleotide: GGTTGGTGTGGTTGG
| Modification | mean fluorescence intensity [a.u.] |
| --- | --- |
| 2'F-ANA at 1 2 4 6 7 10 12 14 | 45.1 |
| 2'F-ANA at 1 2 3 7 13 15 | 208 |
| 2'F-ANA at 1 3 4 5 7 8 9 10 12 | 52.3 |
| 2'F-ANA at 3 5 7 10 12 13 14 15 | 50.5 |
| 2'F-ANA at 2 3 4 5 6 7 8 9 10 11 12 15 | 56 |
| 2'F-ANA at 1 3 5 6 8 11 13 15 | 56.9 |
| 2'F-ANA at 2 3 4 5 7 8 10 11 12 13 14 15 | 50.3 |
| 2'F-ANA at 2 3 5 7 9 10 11 12 | 65.5 |
| 2'F-ANA at 1 2 4 5 7 10 11 | 62.2 |
| 2'F-ANA at 4 6 9 10 11 12 15 | 99.8 |
| 2'F-ANA at 1 2 4 6 7 8 9 13 14 | 51.4 |
| 2'F-ANA at 2 4 5 7 9 14 | 45.4 |
| 2'F-ANA at 3 5 6 9 10 11 13 14 15 | 99.3 |
| 2'F-ANA at 4 8 9 11 14 15 | 93.7 |
| 2'F-ANA at 1 3 4 5 7 9 10 12 13 | 52.2 |
| 2'F-ANA at 1 3 7 8 10 11 12 14 15 | 61.1 |
| 2'F-ANA at 1 2 3 5 7 8 10 14 | 45 |
| 2'F-ANA at 3 6 10 13 14 | 355 |
| 2'F-ANA at 1 2 4 7 8 10 11 12 14 | 46.4 |
| 2'F-ANA at 1 2 4 7 8 9 11 13 14 15 | 48.8 |
| 2'F-ANA at 1 2 3 6 8 9 10 11 13 15 | 58.2 |
| 2'F-ANA at 4 6 10 13 15 | 137 |
| 2'F-ANA at 3 4 6 8 9 11 12 13 14 | 246 |

Some of these lines once more (set 5):
| Modification | mean fluorescence intensity [a.u.] |
| --- | --- |
| 2'F-ANA at 1 3 4 5 7 8 9 10 12 | 52.3 |
| 2'F-ANA at 3 5 7 10 12 13 14 15 | 50.5 |
| 2'F-ANA at 2 3 4 5 6 7 8 9 10 11 12 15 | 56 |
| 2'F-ANA at 1 3 5 6 8 11 13 15 | 56.9 |
| 2'F-ANA at 2 3 4 5 7 8 10 11 12 13 14 15 | 50.3 |
| 2'F-ANA at 2 3 5 7 9 10 11 12 | 65.5 |
| 2'F-ANA at 1 2 4 5 7 10 11 | 62.2 |
